Earlier results that unrelated publications cite.
Compare with care: the assays were run in different laboratories. “And” joins repeats or separate records; there may be more than shown. Numbers after ± are the reported error. ≈ marks a conversion by molar mass, not a printed value.

SMILES = N=C(N)c1ccc(Nc2ccc(-c3cc4ccc(C(=N)N)cc4[nH]3)cc2)cc1; target or system = PRMT3; assay = enzyme activity, inhibitor; conditions = concentration not given; measurement = inhibition; value = inhibited
SMILES = COc1cc(Cc2ccc(CCc3ccccc3)o2)ccc1O; target or system = SERCA2a; assay = activator; conditions = concentration not given; how to read = relative to: control; measurement = maximal SERCA2a activity increase; value = 25 to 43%
SMILES = C[S+]([O-])c1ccc(-c2nc(-c3ccc(F)cc3)c(-c3ccncc3)[nH]2)cc1 (stereo not shown); target or system = CSNK1G2; assay = kinase activity, inhibitor; conditions = 0.5 µM; measurement = inhibition; value = 4%
SMILES = CC(C)c1cc(C(F)(F)F)ccc1CNC(=O)Nc1cccc2[nH]ncc12; target or system = TRPV1; assay = calcium flux, antagonist; test system = HEK293; conditions = together with: capsaicin; measurement = IC50; value = 9 nM
SMILES = CNC(C)C1CCC(N)C(OC2C(N)CC(N)C(OC3OCC(C)(O)C(NC)C3O)C2O)O1 (stereo not shown); target or system = Klebsiella pneumoniae; test system = clinical isolate RKI 373/16-1; measurement = MIC; value = ≤ 0.5 µg/mL
SMILES = CC(C)(C(=O)O)c1ccc(Nc2ncnc3sc(Nc4c(Cl)cccc4Cl)nc23)cc1; target or system = TRPV1; assay = calcium flux, antagonist; test system = HEK293; conditions = together with: capsaicin; measurement = IC50; value = 31 nM
SMILES = CC(O)C(C)n1ncn(-c2ccc(N3CCN(c4ccc(OCC5COC(Cn6cncn6)(c6ccc(Cl)cc6Cl)O5)cc4)CC3)cc2)c1=O (stereo not shown); target or system = human CYP3A4; assay = substrate, refers to: hydroxylation; measurement = Vmax; value = 0.095 pmol/min/pmol CYP
SMILES = FC(F)(F)c1ccc(Nc2nc(N3CCN(C4CCCC4)CC3)nc3c2CCN(c2ncccc2C(F)(F)F)CC3)cc1; target or system = TRPV1; assay = calcium flux, antagonist; test system = HEK293; conditions = together with: capsaicin; measurement = IC50; value = 15 nM
SMILES = O=C(Nc1nc2ccccc2[nH]1)c1ccccc1; target or system = TNFSF10; conditions = 5 µM, PubChem AID 1443; measurement = response; value = 62%
SMILES = Nc1nc(Nc2ccc(S(N)(=O)=O)cc2)n(C(=S)Nc2c(F)cccc2F)n1; target or system = CSNK1G2; assay = kinase activity, inhibitor; conditions = 0.5 µM; measurement = inhibition; value = 85%
SMILES = COc1ccc(CNc2c(CO)cnc3c(C4CC4)cc(C#N)cc23)cc1Cl; target or system = PDE7; how to read = relative to: IC50 PDE7 over PDE5; measurement = selectivity ratio; value = > 10
SMILES = CO[C@H]1/C=C/O[C@@]2(C)Oc3c(C)c(O)c4c(O)c(c(/C=N/N5CCN(C)CC5)c(O)c4c3C2=O)NC(=O)/C(C)=C\C=C\[C@H](C)[C@H](O)[C@@H](C)[C@@H](O)[C@@H](C)[C@H](OC(C)=O)[C@@H]1C; target or system = AADAC; conditions = optimised model value; measurement = kcat; value = 0.164 s⁻¹
SMILES = FC(F)(F)c1ccc(Nc2ncnc3sc(Nc4c(Cl)cccc4Cl)nc23)cc1Cl; target or system = TRPV1; assay = calcium flux, antagonist; test system = HEK293; conditions = together with: capsaicin; measurement = IC50; value = 21 nM
SMILES = Cc1ccc(NC(=O)c2ccc(CN3CCNCC3)cc2)cc1Nc1nccc(-c2cccnc2)n1; target or system = human CYP2C8; assay = recombinant enzyme kinetics; how to read = relative to: CYP2C8 over CYP3A4; measurement = catalytic efficiency ratio; value = ~15 fold
SMILES = [Ca+2]; target or system = cone CNG channel; assay = cGMP-gated current; test system = intact cone outer segment; conditions = together with: cGMP fixed; measurement = K1/2; value = 286 nM and ~290 nM
SMILES = Cc1cccc(C)c1Nc1nc2c(Nc3ccc(C(F)(F)F)cc3)ncnc2s1; target or system = TRPV1; assay = calcium flux, antagonist; test system = HEK293; conditions = together with: capsaicin; measurement = IC50; value = 23 nM
SMILES = CCCCC/C=C\C[C@@H](O)/C=C/C=C/C=C\[C@@H](O)CCCC(=O)O; target or system = CYP4F3A (human); assay = substrate; test system = insect cell microsomes; measurement = kcat; value = 0.547 s⁻¹
SMILES = Nc1ncnc2c1ncn2[C@@H]1O[C@H](COP(=O)(O)OP(=O)(O)OP(=O)(O)O)[C@@H](O)[C@H]1O; target or system = P2Y purinoceptor; conditions = reference compound; measurement = Hill coefficient; value = 0.9
SMILES = Oc1cc2c(cc1CN1CCN(c3cccc(Cl)c3)CC1)oc1ccccc12; target or system = NR4A3 (NOR-1); assay = agonist, cellular; measurement = EC50; value = 1300 ± 300 nM
SMILES = Cc1c(C#N)cccc1[C@@H](C)Nc1nnc(C)c2cnc(N3CCOCC3)cc12; target or system = HOP-92; assay = 3D cell viability; conditions = 14 d; measurement = IC50; value = 220.4 ± 0.35 nM
SMILES = FC(F)(F)c1ccc(Nc2ccnc3nc(-c4ncccc4C(F)(F)F)ccc23)nc1; target or system = TRPV1; assay = calcium flux, antagonist; test system = HEK293; conditions = together with: capsaicin; measurement = IC50; value = 2.2 nM
SMILES = NC[C@@]1(CC(=O)O)[C@@H]2CC[C@H]3C[C@@H]2[C@@H]1C3; target or system = voltage-gated calcium channel α2δ subunit; conditions = concentration not given, together with: [3H]gabapentin; how to read = relative to: compound over pregabalin; measurement = binding affinity relative to pregabalin; value = ~23 fold
SMILES = COCCOCc1ccc(-c2cc3onc(-c4ccccc4)c3c(=O)n2C)cc1; target or system = NR4A2 (Nurr1); assay = agonist, cell-based; measurement = EC50; value = 3.9 ± 1.6 nM
SMILES = CC(C)(C)n1nc(Cc2cccc3ccccc23)c2c(N)ncnc21; target or system = CSNK1G2; assay = kinase activity, inhibitor; conditions = 0.5 µM; measurement = inhibition; value = -1%
SMILES = COc1ccc(N2C(=O)N(c3c(C)cccc3Cl)Cc3cnc(Nc4ccc(C5CCN(C)CC5)cc4OC)nc32)nc1; target or system = 468-kinase panel; conditions = 1 µM, inhibition above 90%; measurement = number of kinases inhibited; value = > 60 kinases
SMILES = COc1ccc2nc([S@+]([O-])Cc3ncc(C)c(OC)c3C)[nH]c2c1; target or system = CYP2C19; assay = mechanism-based inhibitor; measurement = KI; value = 1600 nM
SMILES = O=C(NCc1ccc(OC(F)(F)F)cc1)Nc1cccc2ccc(O)cc12; target or system = TRPV1; assay = calcium flux, antagonist; test system = HEK293; conditions = together with: capsaicin; measurement = IC50; value = 27 nM
SMILES = CC(C)[C@H](CO)Nc1nc(Nc2cc(N)cc(Cl)c2)c2ncn(C(C)C)c2n1; target or system = CSNK1G3; assay = kinase activity, inhibitor; conditions = 0.5 µM; measurement = inhibition; value = 87%
SMILES = C[C@@H]1CN(c2ncccc2C(F)(F)F)CCN1c1nc2ccc(C(C)(C)C)cc2[nH]1; target or system = TRPV1; assay = calcium flux, antagonist; test system = HEK293; conditions = together with: capsaicin; measurement = IC50; value = 32.4 nM
SMILES = O=C1NC(=O)c2c1c1c3ccccc3[nH]c1n1cncc21; target or system = CSNK1G3; assay = kinase activity, inhibitor; conditions = 0.5 µM; measurement = inhibition; value = 13%
SMILES = COc1ccccc1Oc1cccc(CN2CCC(NC(=O)C(CCN3CCCC3)c3ccccc3)CC2)c1 (stereo not shown); target or system = human CCR8 F290A mutant (TM7); assay = IP accumulation, agonist; measurement = EC50; value = 21 nM
SMILES = CC1(C)S[C@@H]2[C@H](NC(=O)[C@H](N)c3ccccc3)C(=O)N2[C@H]1C(=O)O; target or system = Klebsiella pneumoniae; test system = clinical isolate RKI 373/16-1; measurement = MIC; value = 16 µg/mL (≈ 45.8 µM)
SMILES = CCNS(=O)(=O)c1ccc(OC)cc1C1(O)CCN(Cc2cccc(Oc3ccccc3OC)c2)CC1; target or system = human CCR8 S110A mutant (TM3); assay = IP accumulation, agonist; measurement = EC50; value = 2 nM
SMILES = CN(CCN)Cc1csc(-c2ccc(C(=N)N)nc2)n1; target or system = PRMT1; assay = enzyme activity; conditions = 10 µM; measurement = inhibition; value = 75%
SMILES = COc1ccccc1Oc1cccc(CN2CCC(NC(=O)C3CC(=O)Nc4ccccc43)CC2)c1 (stereo not shown); target or system = human CCR8 F84A mutant (TM2); assay = IP accumulation, agonist; measurement = EC50; value = 133 nM
SMILES = Oc1c2ccccc2c2c3c(cccc13)N=N2; target or system = CSNK1G2; assay = kinase activity, inhibitor; conditions = 0.5 µM; measurement = inhibition; value = 12%
SMILES = O=C(Nc1cccc2c(=O)cc(-c3nnn[nH]3)oc12)c1ccc(OCCCCc2ccccc2)cc1; target or system = VRAC (endogenous); assay = swelling-activated current; test system = HEK293; measurement = inhibition time constant; value = ~1 min
SMILES = Nc1cc(C(F)(F)F)c(-c2nc(N3CCOCC3)nc(N3CCOCC3)n2)cn1; target or system = FLT3 ITD; conditions = 10 µM; how to read = relative to: control; measurement = remaining binding; value = 90%
SMILES = CCCCCCCC(=O)c1c(O)cc(O)cc1CC(=O)OCC; target or system = NR4A1; assay = cell-based; measurement = EC50; value = 0.115 nM
SMILES = Oc1ccc(-c2nc(-c3ccncc3)c(-c3ccc(F)cc3)[nH]2)cc1; target or system = CSNK1G2; assay = kinase activity, inhibitor; conditions = 0.5 µM; measurement = inhibition; value = 8%
SMILES = Clc1ccc(C(c2c[nH]c3ccccc23)c2c[nH]c3ccccc23)cc1; target or system = NR4A2 (Nurr1); assay = agonist; measurement = active concentration; value = 7.5 µM and 15 µM
SMILES = COc1ccccc1Oc1cccc(CN2CCC3(CC2)C(=O)NCN3CCc2ccccc2)c1; target or system = human CCR8 K195A mutant (TM5); assay = IP accumulation, agonist; measurement = EC50; value = 6.2 nM
SMILES = O=C(Nc1ccccc1)c1cc([N+](=O)[O-])ccc1Cl; target or system = PPARβ/δ; how to read = relative to: PPARγ over PPARβ/δ; measurement = selectivity ratio; value = 600 fold
SMILES = CO[C@H]1O[C@H](COS(=O)(=O)O)[C@@H](O[C@@H]2O[C@@H](C(=O)O)[C@@H](O[C@H]3O[C@H](COS(=O)(=O)O)[C@@H](O[C@@H]4O[C@H](C(=O)O)[C@@H](O[C@H]5O[C@H](COS(=O)(=O)O)[C@@H](O)[C@H](O)[C@H]5NS(=O)(=O)O)[C@H](O)[C@H]4O)[C@H](OS(=O)(=O)O)[C@H]3NS(=O)(=O)O)[C@H](O)[C@H]2OS(=O)(=O)O)[C@H](O)[C@H]1NS(=O)(=O)O; target or system = CCL7; assay = binding, ITC; measurement = association constant; value = 280000 M⁻¹
SMILES = OC[C@H]1OC(O)[C@H](O)[C@@H](O)[C@@H]1O (stereo partly shown); target or system = human hexokinase 4; assay = substrate; measurement = K0.5; value = 7 mM
SMILES = COc1ccccc1Oc1cccc(CN2CCC(O)(c3ccccc3C(=O)O)CC2)c1; target or system = human CCR8 V109A mutant (TM3); assay = IP accumulation, agonist; measurement = EC50; value = 34 nM

Some of these lines once more:
SMILES = Nc1nc(Nc2ccc(S(N)(=O)=O)cc2)n(C(=S)Nc2c(F)cccc2F)n1; target or system = CSNK1G2; assay = kinase activity, inhibitor; conditions = 0.5 µM; measurement = inhibition; value = 85%
SMILES = Oc1cc2c(cc1CN1CCN(c3cccc(Cl)c3)CC1)oc1ccccc12; target or system = NR4A3 (NOR-1); assay = agonist, cellular; measurement = EC50; value = 1300 ± 300 nM
SMILES = O=C1NC(=O)c2c1c1c3ccccc3[nH]c1n1cncc21; target or system = CSNK1G3; assay = kinase activity, inhibitor; conditions = 0.5 µM; measurement = inhibition; value = 13%
SMILES = CO[C@H]1O[C@H](COS(=O)(=O)O)[C@@H](O[C@@H]2O[C@@H](C(=O)O)[C@@H](O[C@H]3O[C@H](COS(=O)(=O)O)[C@@H](O[C@@H]4O[C@H](C(=O)O)[C@@H](O[C@H]5O[C@H](COS(=O)(=O)O)[C@@H](O)[C@H](O)[C@H]5NS(=O)(=O)O)[C@H](O)[C@H]4O)[C@H](OS(=O)(=O)O)[C@H]3NS(=O)(=O)O)[C@H](O)[C@H]2OS(=O)(=O)O)[C@H](O)[C@H]1NS(=O)(=O)O; target or system = CCL7; assay = binding, ITC; measurement = association constant; value = 280000 M⁻¹
SMILES = C[S+]([O-])c1ccc(-c2nc(-c3ccc(F)cc3)c(-c3ccncc3)[nH]2)cc1 (stereo not shown); target or system = CSNK1G2; assay = kinase activity, inhibitor; conditions = 0.5 µM; measurement = inhibition; value = 4%
SMILES = O=C(NCc1ccc(OC(F)(F)F)cc1)Nc1cccc2ccc(O)cc12; target or system = TRPV1; assay = calcium flux, antagonist; test system = HEK293; conditions = together with: capsaicin; measurement = IC50; value = 27 nM
SMILES = NC[C@@]1(CC(=O)O)[C@@H]2CC[C@H]3C[C@@H]2[C@@H]1C3; target or system = voltage-gated calcium channel α2δ subunit; conditions = concentration not given, together with: [3H]gabapentin; how to read = relative to: compound over pregabalin; measurement = binding affinity relative to pregabalin; value = ~23 fold
